{"data": "Published values pooled from the literature", "note": "Numbered parts are unrelated; each lists some results of a single study. Several values in a cell are separate wells, animals, samples, runs or records.", "UniProt P29317, sequence (whole entry, looked up)": "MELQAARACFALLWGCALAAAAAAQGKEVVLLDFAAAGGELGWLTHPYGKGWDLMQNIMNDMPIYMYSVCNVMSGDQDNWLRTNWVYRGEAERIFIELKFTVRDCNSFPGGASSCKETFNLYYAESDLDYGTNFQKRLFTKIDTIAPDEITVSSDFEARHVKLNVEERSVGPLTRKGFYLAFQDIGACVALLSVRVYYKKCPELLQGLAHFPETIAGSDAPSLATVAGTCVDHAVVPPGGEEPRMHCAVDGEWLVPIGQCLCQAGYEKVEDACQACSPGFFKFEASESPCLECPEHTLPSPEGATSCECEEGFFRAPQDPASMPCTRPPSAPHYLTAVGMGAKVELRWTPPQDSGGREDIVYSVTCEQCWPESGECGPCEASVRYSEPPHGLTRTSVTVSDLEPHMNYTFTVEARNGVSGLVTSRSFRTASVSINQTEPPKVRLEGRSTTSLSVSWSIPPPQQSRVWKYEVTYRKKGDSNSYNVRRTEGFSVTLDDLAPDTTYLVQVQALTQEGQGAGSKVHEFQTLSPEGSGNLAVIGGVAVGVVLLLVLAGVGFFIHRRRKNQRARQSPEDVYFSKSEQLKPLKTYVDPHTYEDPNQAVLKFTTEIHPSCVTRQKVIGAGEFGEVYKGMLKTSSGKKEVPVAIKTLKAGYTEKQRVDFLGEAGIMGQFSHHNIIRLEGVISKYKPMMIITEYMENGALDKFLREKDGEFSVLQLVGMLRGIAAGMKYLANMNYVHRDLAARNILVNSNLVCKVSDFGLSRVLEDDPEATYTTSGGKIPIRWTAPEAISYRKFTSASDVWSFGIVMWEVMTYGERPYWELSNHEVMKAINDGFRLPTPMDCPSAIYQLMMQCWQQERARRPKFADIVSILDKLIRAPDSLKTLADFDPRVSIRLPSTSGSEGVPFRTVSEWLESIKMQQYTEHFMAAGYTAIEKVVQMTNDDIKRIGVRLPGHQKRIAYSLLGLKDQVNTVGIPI", "UniProt Q6DT37, sequence (whole entry, looked up)": "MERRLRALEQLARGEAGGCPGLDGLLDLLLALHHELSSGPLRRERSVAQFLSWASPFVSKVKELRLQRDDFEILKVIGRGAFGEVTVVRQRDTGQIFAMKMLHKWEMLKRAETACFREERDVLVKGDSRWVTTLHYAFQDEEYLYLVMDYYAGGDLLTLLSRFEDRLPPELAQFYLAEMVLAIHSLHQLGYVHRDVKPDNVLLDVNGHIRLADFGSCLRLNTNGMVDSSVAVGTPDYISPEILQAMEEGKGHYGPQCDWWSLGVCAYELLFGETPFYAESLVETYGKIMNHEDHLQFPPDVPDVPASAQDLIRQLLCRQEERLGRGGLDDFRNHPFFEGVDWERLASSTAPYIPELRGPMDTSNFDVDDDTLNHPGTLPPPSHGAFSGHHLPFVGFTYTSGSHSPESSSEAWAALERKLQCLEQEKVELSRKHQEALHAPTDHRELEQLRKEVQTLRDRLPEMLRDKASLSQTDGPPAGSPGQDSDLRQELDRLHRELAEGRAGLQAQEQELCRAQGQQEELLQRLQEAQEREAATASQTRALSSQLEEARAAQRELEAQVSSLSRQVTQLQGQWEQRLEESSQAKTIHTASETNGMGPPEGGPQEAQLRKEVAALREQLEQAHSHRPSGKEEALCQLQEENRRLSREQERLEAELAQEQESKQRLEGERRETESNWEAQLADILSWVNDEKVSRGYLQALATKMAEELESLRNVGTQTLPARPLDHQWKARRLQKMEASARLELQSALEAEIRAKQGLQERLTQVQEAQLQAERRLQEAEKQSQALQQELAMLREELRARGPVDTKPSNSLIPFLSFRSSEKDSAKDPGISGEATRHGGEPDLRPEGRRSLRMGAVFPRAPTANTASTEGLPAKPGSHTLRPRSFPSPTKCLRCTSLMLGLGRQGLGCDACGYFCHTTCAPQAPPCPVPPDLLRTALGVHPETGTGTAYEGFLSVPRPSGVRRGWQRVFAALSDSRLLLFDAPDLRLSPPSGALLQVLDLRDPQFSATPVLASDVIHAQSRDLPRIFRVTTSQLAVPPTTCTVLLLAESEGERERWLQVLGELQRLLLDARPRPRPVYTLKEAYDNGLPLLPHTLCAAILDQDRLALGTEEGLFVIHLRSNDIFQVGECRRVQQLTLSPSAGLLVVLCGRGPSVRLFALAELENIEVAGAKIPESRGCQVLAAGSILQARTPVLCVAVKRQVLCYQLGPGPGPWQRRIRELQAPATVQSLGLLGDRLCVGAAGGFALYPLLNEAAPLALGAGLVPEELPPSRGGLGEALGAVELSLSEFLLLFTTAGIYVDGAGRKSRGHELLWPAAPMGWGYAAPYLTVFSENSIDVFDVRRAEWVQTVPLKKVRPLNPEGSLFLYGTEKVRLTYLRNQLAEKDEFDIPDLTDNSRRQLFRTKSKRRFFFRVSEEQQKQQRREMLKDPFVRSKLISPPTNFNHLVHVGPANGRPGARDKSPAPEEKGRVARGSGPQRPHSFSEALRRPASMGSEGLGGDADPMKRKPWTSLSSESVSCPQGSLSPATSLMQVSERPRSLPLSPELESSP", "UniProt Q9NYL2, sequence (whole entry, looked up)": "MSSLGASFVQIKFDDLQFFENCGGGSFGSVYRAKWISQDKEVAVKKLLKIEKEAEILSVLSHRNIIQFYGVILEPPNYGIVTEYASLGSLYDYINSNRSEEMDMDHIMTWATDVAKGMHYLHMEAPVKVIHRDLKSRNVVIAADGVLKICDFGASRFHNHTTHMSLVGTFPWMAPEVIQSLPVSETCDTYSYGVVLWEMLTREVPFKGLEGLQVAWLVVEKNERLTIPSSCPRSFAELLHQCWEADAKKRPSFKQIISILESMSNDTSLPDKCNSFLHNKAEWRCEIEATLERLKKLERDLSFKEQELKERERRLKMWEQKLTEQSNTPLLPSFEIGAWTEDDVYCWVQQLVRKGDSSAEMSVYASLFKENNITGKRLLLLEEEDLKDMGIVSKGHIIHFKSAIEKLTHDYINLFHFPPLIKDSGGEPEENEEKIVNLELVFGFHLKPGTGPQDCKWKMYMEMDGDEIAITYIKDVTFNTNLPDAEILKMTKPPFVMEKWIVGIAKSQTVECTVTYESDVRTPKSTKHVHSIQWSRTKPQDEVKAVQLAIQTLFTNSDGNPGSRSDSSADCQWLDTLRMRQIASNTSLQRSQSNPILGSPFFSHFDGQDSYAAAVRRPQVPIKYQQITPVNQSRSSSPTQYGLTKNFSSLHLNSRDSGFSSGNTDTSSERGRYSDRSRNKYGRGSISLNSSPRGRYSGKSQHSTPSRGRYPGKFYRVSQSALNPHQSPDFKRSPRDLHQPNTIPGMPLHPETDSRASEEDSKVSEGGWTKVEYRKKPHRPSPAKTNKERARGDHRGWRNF", "UniProt P49759, sequence (whole entry, looked up)": "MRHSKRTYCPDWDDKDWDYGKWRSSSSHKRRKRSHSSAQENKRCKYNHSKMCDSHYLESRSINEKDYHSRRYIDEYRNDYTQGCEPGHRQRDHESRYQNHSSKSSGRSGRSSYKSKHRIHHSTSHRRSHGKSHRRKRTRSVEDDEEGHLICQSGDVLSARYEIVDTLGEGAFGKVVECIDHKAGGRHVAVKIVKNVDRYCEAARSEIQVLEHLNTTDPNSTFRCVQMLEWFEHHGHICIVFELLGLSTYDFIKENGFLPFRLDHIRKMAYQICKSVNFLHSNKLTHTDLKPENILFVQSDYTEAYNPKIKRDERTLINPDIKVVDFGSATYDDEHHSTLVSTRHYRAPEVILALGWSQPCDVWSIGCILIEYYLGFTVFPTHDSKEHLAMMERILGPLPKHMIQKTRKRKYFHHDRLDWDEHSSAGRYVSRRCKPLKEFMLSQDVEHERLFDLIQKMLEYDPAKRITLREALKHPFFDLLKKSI", "UniProt Q8N5S9, sequence (whole entry, looked up)": "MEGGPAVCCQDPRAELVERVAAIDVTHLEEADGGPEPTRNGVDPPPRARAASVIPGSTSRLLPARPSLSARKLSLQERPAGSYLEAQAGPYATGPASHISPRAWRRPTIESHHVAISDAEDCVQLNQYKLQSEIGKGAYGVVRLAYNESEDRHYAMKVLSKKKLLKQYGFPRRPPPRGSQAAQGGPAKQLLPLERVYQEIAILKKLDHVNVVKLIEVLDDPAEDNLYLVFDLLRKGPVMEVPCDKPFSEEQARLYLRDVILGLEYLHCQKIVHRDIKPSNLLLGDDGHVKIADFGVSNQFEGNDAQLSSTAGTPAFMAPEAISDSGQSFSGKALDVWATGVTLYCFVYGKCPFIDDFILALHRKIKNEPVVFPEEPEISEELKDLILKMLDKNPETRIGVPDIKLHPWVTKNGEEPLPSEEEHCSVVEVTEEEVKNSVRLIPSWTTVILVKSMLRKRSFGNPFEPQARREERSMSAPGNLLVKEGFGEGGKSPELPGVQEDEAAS", "UniProt P48730, sequence (whole entry, looked up)": "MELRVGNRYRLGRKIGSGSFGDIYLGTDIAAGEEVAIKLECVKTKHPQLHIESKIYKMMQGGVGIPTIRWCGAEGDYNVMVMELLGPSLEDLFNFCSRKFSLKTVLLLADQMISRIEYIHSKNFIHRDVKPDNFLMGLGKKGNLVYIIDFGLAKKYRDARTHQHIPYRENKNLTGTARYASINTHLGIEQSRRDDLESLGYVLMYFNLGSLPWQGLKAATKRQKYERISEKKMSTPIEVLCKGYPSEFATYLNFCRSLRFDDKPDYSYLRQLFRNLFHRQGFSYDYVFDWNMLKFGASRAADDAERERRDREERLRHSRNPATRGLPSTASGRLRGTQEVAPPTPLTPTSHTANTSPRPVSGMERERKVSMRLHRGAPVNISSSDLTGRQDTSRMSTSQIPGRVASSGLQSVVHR"}
{"data": "Study 1", "Structure (SMILES)": "O=C(c1ccccc1)c1ccc(N2CCOCC2)cc1O", "effect on": "enzyme activity", "mode": "inhibitor", "tested at": "0.5 µM", "relative to": "control"}
{"target": "TYRO3 (Homo sapiens, UniProt Q06418)", "remaining activity": "101%"}
{"target": "SGK2 (Homo sapiens, UniProt Q9HBY8)", "remaining activity": "105%"}
{"target": "CSNK1E (Homo sapiens, UniProt P49674)", "remaining activity": "97.7%"}
{"target": "MAP3K20 (Homo sapiens, UniProt Q9NYL2)", "remaining activity": "95%"}
{"target": "CSNK1D (Homo sapiens, UniProt P48730)", "remaining activity": "100%"}
{"target": "PRKCQ (Homo sapiens, UniProt Q04759)", "remaining activity": "92.5%"}
{"target": "RPS6KA3 (Homo sapiens, UniProt P51812)", "remaining activity": "104%"}
{"target": "FLT1 (Homo sapiens, UniProt P17948)", "remaining activity": "97.4%"}
{"target": "SIK2 (Homo sapiens, UniProt Q9H0K1)", "remaining activity": "100%"}
{"target": "CLK1 (Homo sapiens, UniProt P49759)", "remaining activity": "108%"}
{"target": "SRPK1 (Homo sapiens, UniProt Q96SB4)", "remaining activity": "94.2%"}
{"target": "CLK2 (Homo sapiens, UniProt P49760)", "remaining activity": "106%"}
{"target": "TEC (Homo sapiens, UniProt P42680)", "remaining activity": "119%"}
{"target": "IGF1R (Homo sapiens, UniProt P08069)", "remaining activity": "106%"}
{"target": "CAMK1 (Homo sapiens, UniProt Q14012)", "remaining activity": "97.5%"}
{"target": "PAK6 (Homo sapiens, UniProt Q9NQU5)", "remaining activity": "93.6%"}
{"target": "EPHA2 (Homo sapiens, UniProt P29317)", "remaining activity": "104%"}
{"target": "Cyclin-dependent kinase 2, with cyclin E (CDK2, Homo sapiens, UniProt P24941)", "remaining activity": "99.6%"}
{"target": "JAK1 (Homo sapiens, UniProt P23458)", "remaining activity": "108%"}
{"target": "PAK1 (Homo sapiens, UniProt Q13153)", "remaining activity": "91.8%"}
{"target": "CAMKK1 (Homo sapiens, UniProt Q8N5S9)", "remaining activity": "107%"}
{"target": "MUSK (Homo sapiens, UniProt O15146)", "remaining activity": "101%"}
{"data": "Study 2", "SMILES": "N#Cc1ccc(Nc2ccc3[nH]c(=O)[nH]c3c2)c(Cl)c1", "tested at": "1 µM"}
{"target": "IKBKB (Homo sapiens, UniProt O14920)", "assay": "cell-free assay, competition with immobilised ligand", "remaining binding": "89%"}
{"target": "HIPK4 (Homo sapiens, UniProt Q8NE63)", "assay": "cell-free assay, competition with immobilised ligand", "remaining binding": "100%"}
{"target": "BRSK2 (Homo sapiens, UniProt Q8IWQ3)", "assay": "cell-free assay, competition with immobilised ligand", "remaining binding": "100%"}
{"target": "CDK18 (Homo sapiens, UniProt Q07002)", "assay": "cell-free assay, competition with immobilised ligand", "remaining binding": "100%"}
{"target": "PIK3C2G (Homo sapiens, UniProt O75747)", "assay": "cell-free assay, competition with immobilised ligand", "remaining binding": "95%"}
{"target": "Tyrosine-protein kinase ABL1, non-phosphorylated (ABL1, Homo sapiens, UniProt P00519, F317I)", "assay": "binding, competition with immobilised ligand", "remaining binding": "92%"}
{"target": "FGR (Homo sapiens, UniProt P09769)", "assay": "cell-free assay, competition with immobilised ligand", "remaining binding": "100%"}
{"target": "STK17A (Homo sapiens, UniProt Q9UEE5)", "assay": "cell-free assay, competition with immobilised ligand", "remaining binding": "94%"}
{"target": "MAPK8 (Homo sapiens, UniProt P45983)", "assay": "cell-free assay, competition with immobilised ligand", "remaining binding": "98%"}
{"target": "ZAP70 (Homo sapiens, UniProt P43403)", "assay": "cell-free assay, competition with immobilised ligand", "remaining binding": "90%"}
{"target": "MYLK3 (Homo sapiens, UniProt Q32MK0)", "assay": "cell-free assay, competition with immobilised ligand", "remaining binding": "93%"}
{"target": "PIP5K1C (Homo sapiens, UniProt O60331)", "assay": "cell-free assay, competition with immobilised ligand", "remaining binding": "67%"}
{"target": "PIK3CA (Homo sapiens, UniProt P42336, I800L)", "assay": "cell-free assay, competition with immobilised ligand", "remaining binding": "77%"}
{"target": "KIT (Homo sapiens, UniProt P10721, V559D)", "assay": "cell-free assay, competition with immobilised ligand", "remaining binding": "100%"}
{"target": "CDC42BPG (Homo sapiens, UniProt Q6DT37)", "assay": "competition binding", "remaining binding": "100%"}
{"data": "Study 3", "cell line": "A-375", "tested at": "100 µM", "time": "36 h"}
{"Compound": "CC(C)(C)NCC(O)c1ccc(O)c(CO)c1 (stereo not drawn)", "viability [%]": 45.2}
{"Compound": "CCCCCCCCCCCCCCCCCCCCCCO", "viability [%]": 81}
{"Compound": "O=C(c1ccc(OCCN2CCCCC2)cc1)c1c(-c2ccc(O)cc2)sc2cc(O)ccc12", "viability [%]": 0.0768}
{"Compound": "C=CCOC(Cn1ccnc1)c1ccc(Cl)cc1Cl (stereo not drawn)", "viability [%]": 96.6}
{"Compound": "C#C[C@]1(O)CC[C@H]2[C@@H]3CCC4=C(CCC(=O)C4)[C@H]3CC[C@@]21C", "viability [%]": 14.8}
{"Compound": "N[C@@H]1CON=C1O", "viability [%]": 119}
{"Compound": "Cc1cc(=O)[nH]c(=S)[nH]1", "viability [%]": 134}
{"data": "Study 4", "cell line": "mouse MPNST tumor cells", "method": "high-content nuclear imaging", "refers to": "cell number", "tested at": "10 µM", "time": "12 h", "setting": "mean of 2 replicates", "relative to": "plate mean", "reading": "higher = more cells"}
{"SMILES": "CC(C)[C@H](N)C(=O)OCCOCn1cnc2c(=O)nc(N)[nH]c21", "nuclei count": "0.578 z-score"}
{"SMILES": "CCN(CC)CCCC(C)Nc1nc(C)cc(Nc2ccc3nc(C)cc(N)c3c2)n1 (stereo not drawn)", "nuclei count": "1.71 z-score"}
{"SMILES": "CC(C)C(=O)Nc1ccc([N+](=O)[O-])c(C(F)(F)F)c1", "nuclei count": "-0.331 z-score and 1.2 z-score and 0.539 z-score"}
{"SMILES": "C/C(=N\\NC(=O)C1C(=O)NCC1c1ccccc1)c1cccc(Br)c1 (stereo not drawn)", "nuclei count": "1.15 z-score"}
{"SMILES": "O=C(O[C@@H]1C[C@@H]2C[C@H]3C[C@H](C1)N2CC3=O)c1c[nH]c2ccccc12", "nuclei count": "-0.411 z-score and 0.52 z-score"}
{"SMILES": "C[C@H](NC(=O)CCc1nc2ccccc2c(=O)[nH]1)c1ccccc1", "nuclei count": "0.662 z-score"}
{"SMILES": "COc1ccc([C@@H]2CC(=O)c3c(O)cc(O[C@@H]4O[C@H](CO[C@@H]5O[C@@H](C)[C@H](O)[C@@H](O)[C@H]5O)[C@@H](O)[C@H](O)[C@H]4O)cc3O2)cc1O", "nuclei count": "-0.499 z-score"}
{"SMILES": "CC1=C(C#N)C(=C(C#N)C#N)OC1(C)c1ccc(Cl)c(Cl)c1 (stereo not drawn)", "nuclei count": "-1.62 z-score"}
{"SMILES": "Cc1cc2c(cc1C1(c3ccc(C(=O)O)cn3)CC1)C(C)(C)CCC2(C)C", "nuclei count": "1.27 z-score"}
{"SMILES": "c1ccc(C2CN3CCSC3=N2)cc1 (stereo not drawn)", "nuclei count": "1.47 z-score"}
